Measured values from different studies.
Each line is one published result; not all experiments were run side by side. ± gives the spread as reported. Values after ≈ are worked out from the molar mass of the structure shown.

CC(C)C[C@H](NC(=O)[C@H](Cc1ccccc1)NC(=O)CNC(=O)CNC(=O)[C@@H](N)Cc1ccc(O)cc1)C(=O)O — EC50 (delta opioid receptor (Rana pipiens)): 1800 nM
CCO[C@H]1[C@H](O)[C@@H](N)[C@@H](O[C@H]2[C@H](O[C@@H]3O[C@H](CO)[C@@H](O[C@H]4O[C@@H](CN)[C@@H](O)[C@H](O)[C@H]4N)[C@H]3O)[C@@H](O)[C@H](N)C[C@@H]2N)O[C@@H]1CO — IC50 ratio (Mycobacterium smegmatis ribosome A1408G; translation, cell-free translation; relative to: A1408G mutant over wild type): 100
O=C1C=CC(=O)C(c2cc(Cl)ccc2Cl)=C1 — pLAT level (SHP-1 (human); Western blot; Jurkat; concentration not given, 10 min): increased
CCCCCCCCC(=O)NCc1ccc(O)c(OC)c1 — IC50 (mAb 3-LD3; antibody binding, indirect competitive ELISA; with: coating antigen hapten 4-OVA): 0.00475 µg/mL (≈ 0.0162 µM)
CO[C@H]1[C@H](O)[C@@H](N)[C@@H](O[C@H]2[C@H](O[C@@H]3O[C@H](CO)[C@@H](O[C@H]4O[C@@H](CN)[C@@H](O)[C@H](O)[C@H]4N)[C@H]3O)[C@@H](O)[C@H](N)C[C@@H]2N)O[C@@H]1CO — IC50 (ribosome with mitochondrial A1555G A site; luciferase translation, cell-free translation): 175 ± 46.5 µg/mL (≈ 278 µM)
CC[C@H](C)[C@H](NC(=O)[C@H](Cc1ccccc1)NC(=O)[C@H](CCC(=O)O)NC(=O)[C@H](CCCCNC(=O)COCC(=O)NCCCOCCOCCOCCCNC(=O)CNC(=O)[C@@H]1CCCN1C(=O)CNC(=O)[C@@H]1CCCN1C(=O)CNC(=O)[C@@H]1CCCN1C(=O)[C@H](CCCCNC(=O)CN(CCN(CCN(CC(=O)O)CC(=O)O)CC(=O)O)CC(=O)O)NC(=O)COCC(=O)NCCCOCCOCCOCCCNC(=O)COCC(=O)NCCOc1ccc(Cl)cc1C(=O)NCCc1ccc(S(=O)(=O)NC(=O)NC2CCCCC2)cc1)NC(=O)[C@H](C)NC(=O)[C@H](C)NC(=O)[C@H](CCC(N)=O)NC(=O)CNC(=O)[C@H](CCC(=O)O)NC(=O)[C@H](CC(C)C)NC(=O)[C@H](Cc1ccc(O)cc1)NC(=O)[C@H](CO)NC(=O)[C@H](CO)NC(=O)[C@@H](NC(=O)[C@H](CC(=O)O)NC(=O)[C@H](CO)NC(=O)[C@@H](NC(=O)[C@H](Cc1ccccc1)NC(=O)[C@@H](NC(=O)CNC(=O)[C@H](CCC(=O)O)NC(=O)[C@H](C)NC(=O)[C@@H](N)Cc1c[nH]cn1)[C@@H](C)O)[C@@H](C)O)C(C)C)C(=O)N[C@@H](C)C(=O)N[C@@H](Cc1c[nH]c2ccccc12)C(=O)N[C@@H](CC(C)C)C(=O)N[C@H](C(=O)N[C@@H](CCCNC(=N)N)C(=O)NCC(=O)N[C@@H](CCCNC(=N)N)C(=O)NCC(N)=O)C(C)C — affinity gain (GLP-1R and SUR1; saturation binding, time-resolved fluorescence; βTC3; with: Eu-labelled ligand; relative to: monomeric Eu-labelled GLP-1): ~3 fold
N#Cc1ccc(CN2c3ccccc3C(=O)C23CCCC3)cc1 — remaining activity (acetylcholinesterase; 10 µM): 54.6 ± 5.23%
Cc1c(-c2cccc(C3=NCCN3)c2)oc(-c2cccc(C3=NCCN3)c2)c1C — remaining ΔTm (F21T G-quadruplex DNA; FRET melting competition; 1 µM, with: calf thymus DNA, G4:CT 1:10; relative to: without competitor): 100%
COc1ccc(F)cc1S(=O)(=O)Nc1cnc2c(c1)C(=O)NCCO2 — plasma ALP activity (alkaline phosphatase; inhibitor; C57BL/6J mouse; oral, 1 or 10 mg/kg, 1 to 6 h, potassium salt; relative to: control): decreased
CCCO[C@H]1[C@H](O)[C@@H](N)[C@@H](O[C@H]2[C@H](O[C@@H]3O[C@H](CO)[C@@H](O[C@H]4O[C@@H](CN)[C@@H](O)[C@H](O)[C@H]4N)[C@H]3O)[C@@H](O)[C@H](N)C[C@@H]2N)O[C@@H]1CO — IC50 (ribosome with mitochondrial A1555G A site; luciferase translation, cell-free translation): 152 ± 31.4 µg/mL (≈ 231 µM)
CC[C@H](C)[C@@H]1NC(=O)[C@H](Cc2ccc(O)cc2)NC(=O)[C@@H](N)CSSC[C@@H](C(=O)N2CCC[C@H]2C(=O)N2CCC[C@H]2C(=O)NCC(N)=O)NC(=O)[C@H](CC(N)=O)NC(=O)[C@H](CCC(N)=O)NC1=O — Emax (oxytocin receptor (Callithrix jacchus); membrane hyperpolarisation; CHO cells): 5210 RFU
O=C1c2cc(Cl)ccc2NC12CCCC2 — remaining activity (acetylcholinesterase; 10 µM): 100 ± 5.23%
C=C(NC(=O)C(=C)NC(=O)c1csc(C2=NC3c4csc(n4)C4NC(=O)c5csc(n5)C(C(C)(O)C(C)O)NC(=O)C5CSC(=N5)C(=CC)NC(=O)C(C(C)O)NC(=O)c5csc(n5)C3(CC2)NC(=O)C(=CC)NC(=O)C(=C)NC(=O)C(C)NC(=O)C(C(C)CC)NC2C=Cc3c(C(C)O)cc(nc3C2O)C(=O)OC4C)n1)C(N)=O (centres unmarked) — IC50 ratio range (20S proteasome; three proteolytic activities; relative to: compound over thiostrepton A): ≤ 5 fold
C=C[C@H]1CN2CCc3c([nH]c4cccc(OC)c34)[C@@H]2C[C@@H]1/C(=C\OC)C(=O)OC — cross-reactivity (rabbit anti-mitragynine polyclonal IgG; competitive indirect ELISA; concentration not given; relative to: mitragynine): 14%
CN1C(=O)C2(Cc3ccc(CC45SSC(CO)(C(=O)N4C)N(C)C5=O)cc3)SSC1(CO)C(=O)N2C (racemic) — inhibition (HIF-1α; reporter gene, HRE luciferase reporter; MDA-MB-231-HRE-Luc; 200 nM, with: deferoxamine 300 µM, hypoxia): 85%
CCCCCO[C@H]1[C@H](O)[C@@H](N)[C@@H](O[C@H]2[C@H](O[C@@H]3O[C@H](CO)[C@@H](O[C@H]4O[C@@H](CN)[C@@H](O)[C@H](O)[C@H]4N)[C@H]3O)[C@@H](O)[C@H](N)C[C@@H]2N)O[C@@H]1CO — IC50 (ribosome with mitochondrial A1555G A site; luciferase translation, cell-free translation): 81.1 ± 8.77 µg/mL (≈ 118 µM)
Cc1cc2c(cc1Cl)-c1c(c(C(=O)NC3CCCCC3)nn1-c1ccc(Cl)cc1Cl)C2 — ERK1/2 phosphorylation (cannabinoid receptor CB2 (human); agonist, western blot; HL-60; 0.125 µM, 15 min; relative to: vehicle): 82.5 ± 19.1%
CC[C@H]1CN2CCc3c([nH]c4cccc(OC)c34)[C@@H]2C[C@@H]1/C(=C\OC)C(=O)OC — cross-reactivity (rabbit anti-mitragynine polyclonal IgG; competitive indirect ELISA; concentration not given; relative to: mitragynine): 12.7%
NC[C@@H]1O[C@H](O[C@H]2[C@@H](O)[C@H](O[C@@H]3[C@@H](O)[C@H](N)C[C@H](N)[C@H]3O[C@H]3O[C@@H]4COCO[C@H]4[C@H](O)[C@H]3N)O[C@@H]2CO)[C@H](N)[C@@H](O)[C@@H]1O — IC50 (ribosome with mitochondrial A1555G A site; luciferase translation, cell-free translation): 253 ± 37.6 µg/mL (≈ 403 µM)
C[C@H]1CN(Cc2ccc(C(F)(F)F)cc2N2C3CCC2CN(CC(=O)O)C3)CCN1C(=O)n1ccc(S(=O)(=O)N(C)C)n1 — EC50 (human N-Ras; N-Ras palmitoylation): 29 nM
COCOC[C@H]1O[C@H](O[C@H]2[C@H](O[C@@H]3O[C@H](CO)[C@@H](O[C@H]4O[C@@H](CN)[C@@H](O)[C@H](O)[C@H]4N)[C@H]3O)[C@@H](O)[C@H](N)C[C@@H]2N)[C@H](N)[C@@H](O)[C@@H]1OCOC — IC50 (ribosome with mitochondrial A1555G A site; luciferase translation, cell-free translation): > 700 µg/mL
CCCCCCCC/C=C\CCCCCCCC(=O)Oc1cccc(SSC[C@H](N)C(=O)N[C@@H](Cc2ccc(O)cc2)C(=O)NCC(=O)N[C@@H](C)C(=O)N[C@@H](CCCCN)C(N)=O)c1 — inhibition (calpain, rabbit; enzyme activity; rabbit renal proximal tubule cells; 100 µM, 24 h): ~40%
COCOC[C@H]1O[C@H](O[C@H]2[C@H](O[C@@H]3O[C@H](CO)[C@@H](O[C@H]4O[C@@H](CN)[C@@H](O)[C@H](O)[C@H]4N)[C@H]3O)[C@@H](O)[C@H](N)C[C@@H]2N)[C@H](N)[C@@H](O)[C@@H]1O — IC50 (ribosome with mitochondrial A1555G A site; luciferase translation, cell-free translation): 289 ± 10.8 µg/mL (≈ 438 µM)
Br.Br.O=c1c(O)cccn1CCN1CCN(CCn2cccc(O)c2=O)CC1 — log K110 (Fe(III); complex formation): 7.5
CCCCO[C@H]1[C@H](O)[C@@H](N)[C@@H](O[C@H]2[C@H](O[C@@H]3O[C@H](CO)[C@@H](O[C@H]4O[C@@H](CN)[C@@H](O)[C@H](O)[C@H]4N)[C@H]3O)[C@@H](O)[C@H](N)C[C@@H]2N)O[C@@H]1CO — IC50 (ribosome with mitochondrial A site; luciferase translation, cell-free translation): 150 ± 38.6 µg/mL (≈ 223 µM)
O=C1c2ccccc2N(Cc2cccc(Cl)c2)C12CCCC2 — remaining activity (acetylcholinesterase; 10 µM): 70.2 ± 5.56%

Excerpt of the above:
N#Cc1ccc(CN2c3ccccc3C(=O)C23CCCC3)cc1 — remaining activity (acetylcholinesterase; 10 µM): 54.6 ± 5.23%
Cc1c(-c2cccc(C3=NCCN3)c2)oc(-c2cccc(C3=NCCN3)c2)c1C — remaining ΔTm (F21T G-quadruplex DNA; FRET melting competition; 1 µM, with: calf thymus DNA, G4:CT 1:10; relative to: without competitor): 100%
